Assay results of several laboratories.

SMILES	test system	setting	AUCtau
Fc1ccc([C@@H]2CCNC[C@H]2COc2ccc3c(c2)OCO3)cc1	human, CYP2D6 normal metabolizers	oral, 20 mg, steady state, dosing interval 24 h, geometric mean	0.361 µg·h/mL
CCCCCCCOc1ccc(CCC(N)(CO)CO)cc1C(F)(F)F.Cl	healthy male humans, plasma	0.5 mg, day 21, mean	0.0736 µg·h/mL
CC(=O)N1CCN(c2ccc(OCC3COC(Cn4ccnc4)(c4ccc(Cl)cc4Cl)O3)cc2)CC1 (centres unmarked)	healthy humans, both sexes, plasma	oral, 200 mg twice daily, compound alone	31.5 µg·h/mL
Cc1noc(C)c1-c1cc(C(O)(c2ccccn2)c2ccccn2)c2nc(C3CC3)[nH]c2c1	human, plasma	oral, 0.6 mg, cycle 1 day 8, monotherapy	0.643 µg·h/mL
C[C@@H](Oc1cc(-c2cnn(C3CCNCC3)c2)cnc1N)c1c(Cl)ccc(F)c1Cl	human patients, plasma	oral, dose not given, cycle 2 day 1, geometric mean, added: avelumab	2.75 µg·h/mL
C=CC(=O)Nc1cc(Nc2nccc(Nc3cc(Cl)c(F)cc3C(C)(C)O)n2)c(OC)cc1N1CC[C@@H](N(C)C)C1	human patients, plasma	oral, 400 mg daily, cycle 2 day 1, geometric mean	16.7 µg·h/mL
C[C@H]1Oc2cc(cnc2N)-c2c(nn(C)c2C#N)CN(C)C(=O)c2ccc(F)cc21	human patients, plasma	oral, dose not given, cycle 2 day 1, mean, added: avelumab	6.28 µg·h/mL
Cc1cc(-c2nccc3c2ccn3CC(=O)Nc2ccc(-c3cnccn3)cn2)ccn1	human, plasma	oral, 5 mg once daily, day 16, geometric mean	534 nM·h

Excerpt of the above:
SMILES	test system	setting	AUCtau
C=CC(=O)Nc1cc(Nc2nccc(Nc3cc(Cl)c(F)cc3C(C)(C)O)n2)c(OC)cc1N1CC[C@@H](N(C)C)C1	human patients, plasma	oral, 400 mg daily, cycle 2 day 1, geometric mean	16.7 µg·h/mL
